Measurements gathered from unrelated publications.
Lines come from different studies, so protocols differ. “And” joins repeats or separate records; there may be more than shown. ± gives the spread as reported.

CCCC[C@H](NC(=O)CNC(=O)CNC(=O)[C@H](CCCCNC(=O)[C@H](CC(=O)O)NC(=O)C(C)c1ccc(CC(C)C)cc1)NC(=O)CN1CCN(CC(=O)O)CCN(CC(=O)O)CCN(CC(=O)O)CC1)C(=O)N[C@H]1CC(=O)NCCCC[C@@H](C(N)=O)NC(=O)[C@H](Cc2c[nH]c3ccccc23)NC(=O)[C@H](CCCNC(=N)N)NC(=O)[C@@H](Cc2ccccc2)NC(=O)[C@H](Cc2c[nH]cn2)NC1=O (stereo partly drawn) [lutetium-177 labelled]  tumour-to-tissue ratio (C57 mice, tumour; intravenous, 0.037 MBq, 24 h; reference: kidney): 1.46
CC(C)(O)c1ncc([S@](N)(=O)=NC(=O)Nc2c3c(cc4c2CCC4)CCC3)s1  subjects with TEAEs (item: skin, subcutaneous tissue disorders; healthy human; oral, 30 mg, 14 days, CS formulation, once daily): 67%
O=C(c1ccccc1)N1C(c2ccc(OCC3CCN(CCCF)C3)cc2)c2ccc(O)cc2CC12CC2 (stereo not drawn)  MRT(0-inf) (C57BL/6J mouse, plasma; oral, 25 mg/kg): 4.17 h
O=C(Nc1cnccc1-c1ccc([18F])cc1)c1ccnc(NC(=O)C2CC2)c1  SUV (FVB/NJ mouse, both sexes, brain; intravenous, 50 min): 0.17
CCCCCCCOc1ccc(CC[C@](N)(CO)COP(=O)(O)O)cc1C(F)(F)F  Tmax (healthy male humans, plasma; 0.25 mg amiselimod, day 21, median): 8.01 h
COc1cc(OC)c(/N=N/c2ccc(C(=O)NO)cc2F)c(OC)c1  thermal half-life (Water, DMSO 0.5%; 50 µM, E isomer, after 370 nm irradiation): 1.27 h
Cc1cc(C)n(CCN(CCN)CCCCCCNC(=O)[C@@H](N)Cc2c[nH]cn2)n1.[99Tc+].[C-]#[O+].[C-]#[O+].[C-]#[O+]  tumour-to-tissue ratio (BALB/c nude mice A549 xenograft; intravenous, 15 min; reference: tumour over blood): 0.8
C=CC(=O)Nc1cccc(Cn2ncc3cnc(Nc4cnn(CCOC)c4)nc32)c1  percent of control (ULK2 human; binding, KINOMEscan; 100 nM; lower = stronger binding): 97%
C=Cc1c(C)c2cc3nc(c(CC(=O)OCCOCCOCCOC)c4[nH]c(cc5nc(cc1[nH]2)C(C)=C5CC)c(C)c4C(=O)O)[C@@H](CCC(=O)OCCOCCOCCOC)[C@@H]3C  compound loss (LC-MS; methanol-water 9:1; 4 h, pH 2.0): 57%
CC(C)(F)CC(NC(c1ccc(-c2ccc(S(C)(=O)=O)cc2)cc1)C(F)(F)F)C(=O)NCC#N (stereo not drawn)  cysteine adduct formation (MES buffer; 100 µM, 23 h, pH 5.5, 37 °C, with: cysteine 10 mM): 5%
CCCC[C@H](NC(=O)CNC(=O)CNC(=O)[C@H](CCCCNC(=O)[C@H](CCN)NC(=O)C(C)c1ccc(CC(C)C)cc1)NC(=O)CN1CCN(CC(=O)O)CCN(CC(=O)O)CCN(CC(=O)O)CC1)C(=O)N[C@H]1CC(=O)NCCCC[C@@H](C(N)=O)NC(=O)[C@H](Cc2c[nH]c3ccccc23)NC(=O)[C@H](CCCNC(=N)N)NC(=O)[C@@H](Cc2ccccc2)NC(=O)[C@H](Cc2c[nH]cn2)NC1=O (stereo partly drawn) [lutetium-177 labelled]  tumour-to-tissue ratio (C57 mice, tumour; 2 h; reference: liver): 0.49
C=CC(=O)Nc1cc(Nc2nccc(-c3c[nH]c4ccccc34)n2)c(OC)cc1N(C)CCN(C)C  recovery (storage stability; human dried blood spot; 10 d, on ice, HQC level): 71.2%
O=C(CN1CCN(CC(=O)NCc2ncccc2O)CCN(CC(=O)NCc2ncccc2O)CCN(CC(=O)NCc2ncccc2O)CC1)NCc1ncccc1O.[177Lu+3]  tissue uptake (Sprague-Dawley rat, pancreas; intravenous (tail vein), dose not given, 2 h): 0.026 ± 0.023 % injected dose/g
C=CC(=O)Nc1cc(Nc2nccc(-c3cn(C)c4ccccc34)n2)c(OC)cc1N(C)CCNC  recovery (storage stability; human dried blood spots; 72 h, on ice, low QC level): 70.2%
CN([O-])C(=O)CN1CCN(CC(=O)N(C)[O-])CCN(Cc2ccccn2)CC1.[89Zr+4]  tracer uptake (mouse, bone; intravenous, 24 h): 12.9 %ID/g
COC1CN([C@H]2CC[C@H]([C@@]3(C)Oc4c(Cl)cc(C(=O)NCc5c(SC)cc(C)[nH]c5=O)c(C)c4O3)CC2)C1  log2 fold change (RNA-seq, item: CDKL1 mouse homolog; mouse, HT-1376 xenograft, whole blood; dose not given; reference: vehicle): 0.964
N=C(N)NCCC[C@@H]1NC(=O)[C@H](CO)NC(=O)[C@@H](NC(=O)[C@H](CO)NC(=O)[C@H](CO)NC(=O)[C@H](Cc2c[nH]c3ccccc23)NC(=O)CNC(=O)[C@H](CO)NC(=O)[C@@H](N)Cc2c[nH]c3ccccc23)CSSC[C@@H](C(=O)NCC(=O)O)NC(=O)[C@H](CO)NC1=O  total clearance (patients, plasma; intravenous, 5 mg/kg, thrice weekly, mean): 1420 L/h
C=C(NC(=O)c1csc(-c2nc3c(cc2O)-c2nc(cs2)C(=O)NC(C(C)O)C(=O)NC(=C(C)OC)c2nc(cs2)C(=O)NC2c4nc(cs4)C(=O)NC(COC(=O)c4c5c6c(cccc6n4O)COC(=O)C(OC4CC(C)(O)C(N(C)C)C(C)O4)C2OC5)c2nc-3cs2)n1)C(N)=O (stereo not drawn)  Tmax (cynomolgus monkey, female, plasma; intravenous infusion, 1.5 mg/kg twice daily, 0 to 30 h): 2.08 h
CC(C(=O)O)n1nc(Cn2cc3cc(OCC[18F])c(Cl)cc3n2)c2ccccc2c1=O (racemic)  tissue uptake (Sprague-Dawley rat male, fat; 30 min): 0.05 ± 0.02 %ID/g
COc1cccc(OC)c1-c1cc(C(=O)NC2(C(=O)O)C3CC4CC(C3)CC2C4)nn1-c1ccc(C(=O)N(C)CCCN(C)C(=O)[C@H](CCCCNC(=O)[C@H](CC(C)C)NC(=O)C2OC2C(=O)O)NC(=O)CN2CCN(CC(=O)[O-])CCN(CC(=O)[O-])CCN(CC(=O)[O-])CC2)cc1C(C)C.[177Lu+3] (mixture of isomers)  tumour-to-heart ratio (mouse, HT-29 xenograft; 24 h post injection, biodistribution; reference: tumour over heart uptake): 19.4
COc1ccc2c(c1)CCn1c[n+]3c(c1-2)-c1ccc(OC)cc1CC3  Neutrophils (female NSG mice, blood; 6 mg/kg, day 20, 5 days per week): 67.6 ± 10.6%
CC(C)OCCOCc1ccc(OCC(O)CN(N=O)C(C)C)cc1 (stereo not drawn)  fold change (duplex sequencing, item: mutation frequency; NMRI mouse, bone marrow; oral, 845 mg/kg/day, 4 weeks; reference: vehicle): 2.4
[Cl-].[Cl-].[Ru+2].c1ccc(-c2cccc(-c3ccccn3)n2)nc1.c1ccc2nc(-c3ccc4ccccc4n3)ccc2c1  relative log P (C18 HPLC retention time; water; 100 µM; reference: standards of known log P): 1.21
CC1(F)C(O)C(CO)OC1n1cnc2c(=O)[nH]c(N)nc21 (stereo not drawn)  Cmax, geometric mean (healthy adult humans, plasma; oral, 550 mg once daily, day 6, fasted, given alone): 228 ng/mL
CC(C)C[C@H](NC(=O)[C@@H](CCCCNC(=O)[C@@H](Cc1ccccc1)NC(=O)CCCCCCCNC(=O)CN1CCN(CC(=O)O)CCN(CC(=O)O)CCN(CC(=O)O)CC1)NC(=O)[C@H](Cc1ccc(O)cc1)NC(=O)[C@H](CO)NC(=O)[C@H](Cc1c[nH]c2ccccc12)NC(=O)[C@H](Cc1c[nH]cn1)NC(=O)[C@@H]1CCC(=O)N1)C(=O)N[C@@H](CCCNC(=N)N)C(=O)N1CCC[C@H]1C(=O)NCC(N)=O [indium-111 labelled]  tumour-to-tissue ratio (male athymic nude mice, DU-145 prostate cancer xenograft, tumour; intravenous, 0.037 MBq, 0.5 h; reference: tumour over muscle): 2.13
O=C(Nc1cnccc1-c1ccc([18F])nc1)c1ccnc(NC(=O)C2CC2)c1  SUV (mice, transgenic, GSK-3β, early-stage, bone; intravenous, dose not given, 120 min, with: tariquidar 15 mg/kg i.v. pre-dose): 0.224
CCn1c(=O)c(-c2cc(NC(=O)Nc3ccccc3)c(F)cc2Br)cc2cnc(N)cc21  short-term stability accuracy (human plasma; 4000 ng/mL, 24 h, 24 °C, high QC): 9.07%
C=Cc1c(C)c2cc3nc(c(CC(=O)O)c4[nH]c(cc5nc(cc1[nH]2)C(C)=C5CC)c(C)c4C(=O)O)[C@@H](CCC(=O)OCCOCCOCCOC)[C@@H]3C  compound loss (LC-MS; methanol-water 9:1; 4 h, pH 2.0): 28%
Cc1nc(N)nc2c1C(=O)N[C@@H](c1ccc(F)cc1-c1cccc(O[11CH3])n1)C2  tracer uptake (ex vivo biodistribution; mice, U87 subcutaneous xenograft, brain; 60 min post-injection, baseline, vehicle pre-treatment): 4 ± 0.7 %ID
COc1ccnc(C(=O)N[C@H]2COC(=O)[C@H](Cc3ccccc3)[C@@H](OC(=O)C(C)C)[C@H](C)OC2=O)c1O  DT50 sediment (Staffordshire loam sediment, aerobic dark; 20 °C): 0.91 days
CC(=O)N([O-])CCCCCNC(=O)CCC(=O)N([O-])CCCCCNC(=O)CCC(=O)N([O-])CCCCCN.[89Zr+4]  tracer uptake (mouse, blood; 1 h): 0.67 %ID/g
O=C([O-])CN1CCN(CC(=O)[O-])CCN(CC(=O)NCC2CCC(C(=O)NC(Cc3ccc4ccccc4c3)C(=O)NCCCCC(NC(=O)NC(CCC(=O)O)C(=O)O)C(=O)O)CC2)CCN(CC(=O)[O-])CC1.[68Ga+3] (stereo not drawn)  distribution half-life (BALB/c mouse, blood; intravenous): 1 min
OCC1OC(n2cnc3c(NCc4ccc(Br)s4)ncnc32)C(O)C1O (stereo not drawn)  t1/2 (ICR mice, male, blood; oral, 10 mg/kg): 3 ± 1 h
CCCCc1cnc(SCC(=O)c2ccc(S(N)(=O)=O)c(Cl)c2)nc1  pKa (sulfonamide group): 8.9
Cc1nn(-c2nc3c(F)cc(F)cc3s2)c(O)c1C(c1ccc(C(F)(F)F)cc1)c1c(C)nn(-c2nc3c(F)cc(F)cc3s2)c1O  AUMC(0-inf) observed (ICR mouse, plasma; oral, 50 mg/kg): 1.46e+06 h²·ng/mL and 3.09e+06 h²·ng/mL and 1.61e+06 h²·ng/mL
[123I]c1ccc2nc(-c3ccc(-n4ccnn4)nc3)cn2c1  tracer uptake (male Wistar rat, stomach; intravenous, 4 MBq, 3 h): 0.997 %ID/g
O=C(Nc1ccc(-c2nnc(-c3ccccn3)nn2)nc1)c1ccc(-c2cn(CCOCCOCCOCC[18F])nn2)cc1  tumour to blood ratio (PET imaging; BALB/c nude mouse, LS174T xenograft, tumour, heart as blood; intravenous, 1 h, with: CC49-TCO 72 h before; reference: tumour over heart): 0.77
COCC1CN(C2CCN(c3cc(OC)c(Nc4ncc(Br)c(Nc5ccc6c(c5P(C)(C)=O)OCCO6)n4)cc3C)CC2)C1  adverse events (first-in-human trial; human; oral, 60 mg once daily; treatment-related leading to dose suspension): 0%
C[N+](C)(CCOCCOCCOCCNC(=S)Nc1ccc(C[C@H]2CN(CC(=O)[O-])CCN(CC(=O)[O-])CCN2CC(=O)[O-])cc1)C[c-]1cccc1.[64Cu+2].[Fe+2].c1cc[cH-]c1  tumour uptake (pretargeted PET; nude mouse, BxPC-3 xenograft; 24 h post-radioligand, 72 h lag time): 2.6 ± 0.9 %ID/mL
CN1CCC[C@]1(C)/C=C/S(=O)(=O)NC(=O)Nc1c2c(cc3c1CCC3O)CCC2 (stereo partly drawn)  Tmax at first steady-state dose (human, plasma; oral, 12.5 mg twice daily of parent drug, day 14, metabolite of dosed drug): 3 h
CC[C@H](C)[C@@H]1NC(=O)[C@H](Cc2ccc(O)cc2)NC(=O)CCCSC[C@@H](C(=O)N(CC(=O)N[C@@H](CC(C)C)C(=O)NCC(N)=O)Cc2ccc(F)cc2)NC(=O)[C@H](CC(N)=O)NC(=O)[C@H](CCC(N)=O)NC1=O  serious adverse events (human; intranasal, 200 µg single dose): 0%
CCCCN1C(=O)c2cccc3c(NCCCCCCCCN4CCOCC4)ccc(c23)C1=O  fluorescence quantum yield (DMSO): 0.99

For quick reference, copied from above:
O=C([O-])CN1CCN(CC(=O)[O-])CCN(CC(=O)NCC2CCC(C(=O)NC(Cc3ccc4ccccc4c3)C(=O)NCCCCC(NC(=O)NC(CCC(=O)O)C(=O)O)C(=O)O)CC2)CCN(CC(=O)[O-])CC1.[68Ga+3] (stereo not drawn)  distribution half-life (BALB/c mouse, blood; intravenous): 1 min
OCC1OC(n2cnc3c(NCc4ccc(Br)s4)ncnc32)C(O)C1O (stereo not drawn)  t1/2 (ICR mice, male, blood; oral, 10 mg/kg): 3 ± 1 h
CCCCc1cnc(SCC(=O)c2ccc(S(N)(=O)=O)c(Cl)c2)nc1  pKa (sulfonamide group): 8.9
Cc1nn(-c2nc3c(F)cc(F)cc3s2)c(O)c1C(c1ccc(C(F)(F)F)cc1)c1c(C)nn(-c2nc3c(F)cc(F)cc3s2)c1O  AUMC(0-inf) observed (ICR mouse, plasma; oral, 50 mg/kg): 1.46e+06 h²·ng/mL and 3.09e+06 h²·ng/mL and 1.61e+06 h²·ng/mL
[123I]c1ccc2nc(-c3ccc(-n4ccnn4)nc3)cn2c1  tracer uptake (male Wistar rat, stomach; intravenous, 4 MBq, 3 h): 0.997 %ID/g
